# Assay results from different studies.
# Protocols differ between the studies behind these lines.
# POU: POU, POU domain (Salpingoeca helianthica)
# T1: POU, POU domain (Salpingoeca helianthica); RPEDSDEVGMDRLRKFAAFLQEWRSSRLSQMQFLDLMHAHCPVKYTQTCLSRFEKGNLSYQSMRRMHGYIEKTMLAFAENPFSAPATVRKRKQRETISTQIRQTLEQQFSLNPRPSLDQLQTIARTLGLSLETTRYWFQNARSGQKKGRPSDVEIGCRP
# Sequence of UniProt Q92985 (whole entry, unmodified, looked up): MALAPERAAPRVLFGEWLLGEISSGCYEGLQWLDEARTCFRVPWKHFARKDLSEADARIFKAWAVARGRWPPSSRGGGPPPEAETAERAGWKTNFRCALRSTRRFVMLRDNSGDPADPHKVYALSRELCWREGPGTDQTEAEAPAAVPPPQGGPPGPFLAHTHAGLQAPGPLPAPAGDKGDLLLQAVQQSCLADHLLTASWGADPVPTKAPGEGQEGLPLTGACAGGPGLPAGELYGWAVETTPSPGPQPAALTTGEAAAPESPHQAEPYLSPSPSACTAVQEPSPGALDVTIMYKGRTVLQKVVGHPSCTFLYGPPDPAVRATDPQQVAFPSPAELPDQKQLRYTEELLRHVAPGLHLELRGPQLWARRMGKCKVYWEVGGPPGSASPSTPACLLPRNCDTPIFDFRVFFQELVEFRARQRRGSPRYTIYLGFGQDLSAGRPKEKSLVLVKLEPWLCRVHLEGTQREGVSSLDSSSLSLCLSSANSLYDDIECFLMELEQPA
Substance,target,assay,system,conditions,how to read,measurement,result
CTCATGGC,"Histone acetyltransferase KAT6A, both winged helices, GST fusion (KAT6A, Homo sapiens, UniProt Q92794, residues 1-181)",protein binding microarray,"double-stranded DNA, one strand shown, in vitro","not given, 8-mer, flanks averaged, mean of 2 arrays, mostly near background","relative to: not given, higher = stronger binding",E-score,-0.0258
"PhoQ, residues 284 288 289 292 302 303 SACGEM","PhoP, residues 12 14 15 18 19 FWNTL (Escherichia coli, UniProt P23836)","Sort-seq, refers to: YFP reporter",E. coli,"PhoQ-PhoP variant library, with: 10 µM Mg2+","relative to: high Mg2+ state, higher = stronger signaling",fold induction,0.703
GAGTCGTCTCGTCAGCACATCTTAATCCGTAGAGCACTCAGGTC,"T1, POU, POU domain (Salpingoeca helianthica)",Spec-seq,"double-stranded DNA, one strand shown, in vitro","not given, whole probe, mean of replicates","relative to: not given, lower = stronger binding",relative binding energy,0.506 ln ratio
GGAGCCAC,"Histone acetyltransferase KAT6A, winged helix 1, GST fusion (KAT6A, Homo sapiens, UniProt Q92794, residues 1-85)",protein binding microarray,"double-stranded DNA, one strand shown, in vitro","not given, 8-mer, flanks averaged, mean of 2 arrays, mostly near background","relative to: not given, higher = stronger binding",E-score,-0.175
GCCTAGCACTCACTCTCTCTATTCTGTGGGTGCTAGGTCTTGATTCGCTTGACGCTGCTG,"Interferon regulatory factor 7, full length, phosphomimetic (IRF7, Homo sapiens, UniProt Q92985, residues 1-503, S101K/S471D/S472D/S475D/S476D/S477D/S483D/S484D/S487D)",protein-binding microarray,"double-stranded DNA, one strand shown, in vitro","250 nM, 60-bp whole probe, with: salmon DNA 0.4 mg/ml","relative to: random background probes, higher = stronger binding",log fluorescence,0.58 z-score
GAGTCGTCTCGTCAGCACATTTGGATCCGTAGAGCACTCAGGTC,"T1, POU, POU domain (Salpingoeca helianthica)",Spec-seq,"double-stranded DNA, one strand shown, in vitro","not given, whole probe, mean of replicates","relative to: not given, lower = stronger binding",relative binding energy,1.1 ln ratio
GCCTAGCACTCATTTTTAATGAATGAAACTGTGCTAGTCTTGATTCGCTTGACGCTGCTG,"Interferon regulatory factor 7, full length, phosphomimetic (IRF7, Homo sapiens, UniProt Q92985, residues 1-503, S471D/S472D/S475D/S476D/S477D/S483D/S484D/S487D)",protein-binding microarray,"double-stranded DNA, one strand shown, in vitro","2200 nM top, 60-bp whole probe, with: salmon DNA 0.4 mg/ml","relative to: random background probes, higher = stronger binding",fitted relative affinity,-0.155 z-score
AAGTTGCG,"Sal-like protein 4, full length isoform B (SALL4, Homo sapiens, UniProt Q9UJQ4-2, residues 1-616)",universal PBM,"double-stranded DNA, one strand shown, in vitro","not given, 8-mer, flanks averaged, mean of replicates",higher = stronger binding,E-score,-0.143

# Repeated from above:
Substance,target,assay,system,conditions,how to read,measurement,result
CTCATGGC,"Histone acetyltransferase KAT6A, both winged helices, GST fusion (KAT6A, Homo sapiens, UniProt Q92794, residues 1-181)",protein binding microarray,"double-stranded DNA, one strand shown, in vitro","not given, 8-mer, flanks averaged, mean of 2 arrays, mostly near background","relative to: not given, higher = stronger binding",E-score,-0.0258
